Experimental data gathered from unrelated publications.
Numbered parts are unrelated; each lists some results of a single study. Several values in a cell are separate wells, animals, samples, runs or records.
UniProt P27448, sequence (whole entry, looked up): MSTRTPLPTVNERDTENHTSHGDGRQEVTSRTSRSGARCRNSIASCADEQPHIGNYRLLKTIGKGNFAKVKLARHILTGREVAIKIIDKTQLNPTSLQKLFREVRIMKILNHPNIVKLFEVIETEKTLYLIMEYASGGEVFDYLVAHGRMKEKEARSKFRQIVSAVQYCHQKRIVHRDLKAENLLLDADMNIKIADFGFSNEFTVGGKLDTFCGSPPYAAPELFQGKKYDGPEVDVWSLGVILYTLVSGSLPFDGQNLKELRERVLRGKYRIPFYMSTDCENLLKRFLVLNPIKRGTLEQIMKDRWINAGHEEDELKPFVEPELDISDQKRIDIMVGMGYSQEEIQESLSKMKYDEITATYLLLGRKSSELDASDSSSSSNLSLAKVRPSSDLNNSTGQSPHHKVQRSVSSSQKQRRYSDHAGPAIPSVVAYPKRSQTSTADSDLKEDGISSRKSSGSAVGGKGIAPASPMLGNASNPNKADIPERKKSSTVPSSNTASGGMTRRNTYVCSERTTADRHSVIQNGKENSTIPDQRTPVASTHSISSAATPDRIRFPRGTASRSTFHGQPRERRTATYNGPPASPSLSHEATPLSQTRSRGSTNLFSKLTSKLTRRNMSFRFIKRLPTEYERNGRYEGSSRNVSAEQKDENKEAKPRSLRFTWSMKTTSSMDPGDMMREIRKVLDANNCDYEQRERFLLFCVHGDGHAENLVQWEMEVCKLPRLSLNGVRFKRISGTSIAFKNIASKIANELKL
UniProt P37173, sequence (whole entry, looked up): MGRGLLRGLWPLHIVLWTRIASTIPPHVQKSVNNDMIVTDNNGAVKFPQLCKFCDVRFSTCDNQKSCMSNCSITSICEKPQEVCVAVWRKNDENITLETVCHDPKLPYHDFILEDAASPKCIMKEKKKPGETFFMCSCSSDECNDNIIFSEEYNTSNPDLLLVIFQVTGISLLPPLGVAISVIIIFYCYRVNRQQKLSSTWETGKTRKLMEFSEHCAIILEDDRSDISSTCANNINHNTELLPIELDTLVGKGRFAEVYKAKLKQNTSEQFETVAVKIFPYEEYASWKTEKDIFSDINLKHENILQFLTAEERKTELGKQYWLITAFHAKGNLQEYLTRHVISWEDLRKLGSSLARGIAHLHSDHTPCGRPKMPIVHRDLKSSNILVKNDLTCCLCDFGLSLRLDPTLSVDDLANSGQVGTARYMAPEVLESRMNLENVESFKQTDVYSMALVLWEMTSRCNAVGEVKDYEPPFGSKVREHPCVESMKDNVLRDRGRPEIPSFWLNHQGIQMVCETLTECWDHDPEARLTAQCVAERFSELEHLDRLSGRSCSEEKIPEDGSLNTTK
UniProt Q9NQU5, sequence (whole entry, looked up): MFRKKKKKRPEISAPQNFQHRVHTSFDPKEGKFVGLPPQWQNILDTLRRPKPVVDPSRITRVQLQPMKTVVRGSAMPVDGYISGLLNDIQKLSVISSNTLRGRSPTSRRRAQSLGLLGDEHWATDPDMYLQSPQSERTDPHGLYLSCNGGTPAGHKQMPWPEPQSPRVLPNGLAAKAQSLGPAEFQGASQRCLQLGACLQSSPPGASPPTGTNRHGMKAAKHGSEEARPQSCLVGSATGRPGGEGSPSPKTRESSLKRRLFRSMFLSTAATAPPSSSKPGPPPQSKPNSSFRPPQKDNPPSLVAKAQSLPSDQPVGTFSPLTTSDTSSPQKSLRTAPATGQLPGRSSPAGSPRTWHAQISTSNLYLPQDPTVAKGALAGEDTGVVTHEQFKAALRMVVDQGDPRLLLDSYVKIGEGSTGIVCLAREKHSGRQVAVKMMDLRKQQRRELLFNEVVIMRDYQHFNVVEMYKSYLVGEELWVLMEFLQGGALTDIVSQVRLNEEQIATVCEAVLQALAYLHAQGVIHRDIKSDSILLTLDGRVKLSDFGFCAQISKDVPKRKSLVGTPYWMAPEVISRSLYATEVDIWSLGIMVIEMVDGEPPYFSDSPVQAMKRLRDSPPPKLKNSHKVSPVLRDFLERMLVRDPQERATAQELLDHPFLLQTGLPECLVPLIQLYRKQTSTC
UniProt P42336, sequence (whole entry, looked up): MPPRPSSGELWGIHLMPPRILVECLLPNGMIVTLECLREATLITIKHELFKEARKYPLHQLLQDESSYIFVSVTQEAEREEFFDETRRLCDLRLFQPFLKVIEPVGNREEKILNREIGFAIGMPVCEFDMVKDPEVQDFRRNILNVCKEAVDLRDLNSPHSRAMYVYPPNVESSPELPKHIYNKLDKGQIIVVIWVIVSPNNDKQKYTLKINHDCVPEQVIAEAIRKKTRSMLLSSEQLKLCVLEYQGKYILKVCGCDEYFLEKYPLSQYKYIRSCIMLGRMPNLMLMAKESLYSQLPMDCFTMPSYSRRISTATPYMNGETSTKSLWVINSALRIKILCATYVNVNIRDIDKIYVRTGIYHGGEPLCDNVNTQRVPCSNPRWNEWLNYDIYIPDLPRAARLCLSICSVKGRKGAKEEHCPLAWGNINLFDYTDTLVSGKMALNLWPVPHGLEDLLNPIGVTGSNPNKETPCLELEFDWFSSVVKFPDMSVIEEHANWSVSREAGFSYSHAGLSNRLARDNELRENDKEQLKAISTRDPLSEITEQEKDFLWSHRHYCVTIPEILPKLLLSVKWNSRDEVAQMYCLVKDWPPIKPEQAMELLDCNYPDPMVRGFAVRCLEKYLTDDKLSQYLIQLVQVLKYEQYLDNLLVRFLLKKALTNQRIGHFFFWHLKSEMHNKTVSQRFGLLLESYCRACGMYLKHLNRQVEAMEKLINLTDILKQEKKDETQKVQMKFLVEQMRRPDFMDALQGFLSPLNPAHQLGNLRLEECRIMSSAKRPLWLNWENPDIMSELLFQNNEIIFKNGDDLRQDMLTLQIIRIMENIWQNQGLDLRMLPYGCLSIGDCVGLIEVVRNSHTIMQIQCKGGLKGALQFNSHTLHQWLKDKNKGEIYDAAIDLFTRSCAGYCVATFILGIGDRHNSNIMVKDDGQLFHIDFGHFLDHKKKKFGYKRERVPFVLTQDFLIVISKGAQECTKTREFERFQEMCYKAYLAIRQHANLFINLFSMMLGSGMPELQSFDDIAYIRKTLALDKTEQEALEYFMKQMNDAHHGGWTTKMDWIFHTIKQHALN
UniProt O15264, sequence (whole entry, looked up): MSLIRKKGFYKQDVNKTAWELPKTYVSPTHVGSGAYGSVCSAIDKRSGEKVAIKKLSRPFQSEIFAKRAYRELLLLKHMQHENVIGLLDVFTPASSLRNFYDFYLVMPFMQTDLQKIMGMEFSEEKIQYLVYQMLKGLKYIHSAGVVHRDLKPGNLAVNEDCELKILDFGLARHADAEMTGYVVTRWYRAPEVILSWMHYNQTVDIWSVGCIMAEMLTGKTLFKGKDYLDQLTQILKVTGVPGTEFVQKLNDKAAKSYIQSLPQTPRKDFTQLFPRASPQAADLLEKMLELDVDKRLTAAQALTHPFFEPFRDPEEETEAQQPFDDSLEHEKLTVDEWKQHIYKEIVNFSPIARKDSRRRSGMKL
UniProt Q6PHR2, sequence (whole entry, looked up): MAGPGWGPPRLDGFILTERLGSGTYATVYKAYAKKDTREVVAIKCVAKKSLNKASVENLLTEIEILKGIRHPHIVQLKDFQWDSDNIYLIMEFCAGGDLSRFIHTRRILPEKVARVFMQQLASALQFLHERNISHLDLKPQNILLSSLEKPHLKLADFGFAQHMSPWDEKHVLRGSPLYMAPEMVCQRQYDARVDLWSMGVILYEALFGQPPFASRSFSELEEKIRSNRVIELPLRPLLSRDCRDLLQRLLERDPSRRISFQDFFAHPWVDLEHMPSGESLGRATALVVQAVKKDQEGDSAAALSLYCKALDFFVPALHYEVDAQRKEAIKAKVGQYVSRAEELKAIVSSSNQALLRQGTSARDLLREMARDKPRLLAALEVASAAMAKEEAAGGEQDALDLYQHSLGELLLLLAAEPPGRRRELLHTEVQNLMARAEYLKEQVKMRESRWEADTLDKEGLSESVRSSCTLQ
UniProt P04629, sequence (whole entry, looked up): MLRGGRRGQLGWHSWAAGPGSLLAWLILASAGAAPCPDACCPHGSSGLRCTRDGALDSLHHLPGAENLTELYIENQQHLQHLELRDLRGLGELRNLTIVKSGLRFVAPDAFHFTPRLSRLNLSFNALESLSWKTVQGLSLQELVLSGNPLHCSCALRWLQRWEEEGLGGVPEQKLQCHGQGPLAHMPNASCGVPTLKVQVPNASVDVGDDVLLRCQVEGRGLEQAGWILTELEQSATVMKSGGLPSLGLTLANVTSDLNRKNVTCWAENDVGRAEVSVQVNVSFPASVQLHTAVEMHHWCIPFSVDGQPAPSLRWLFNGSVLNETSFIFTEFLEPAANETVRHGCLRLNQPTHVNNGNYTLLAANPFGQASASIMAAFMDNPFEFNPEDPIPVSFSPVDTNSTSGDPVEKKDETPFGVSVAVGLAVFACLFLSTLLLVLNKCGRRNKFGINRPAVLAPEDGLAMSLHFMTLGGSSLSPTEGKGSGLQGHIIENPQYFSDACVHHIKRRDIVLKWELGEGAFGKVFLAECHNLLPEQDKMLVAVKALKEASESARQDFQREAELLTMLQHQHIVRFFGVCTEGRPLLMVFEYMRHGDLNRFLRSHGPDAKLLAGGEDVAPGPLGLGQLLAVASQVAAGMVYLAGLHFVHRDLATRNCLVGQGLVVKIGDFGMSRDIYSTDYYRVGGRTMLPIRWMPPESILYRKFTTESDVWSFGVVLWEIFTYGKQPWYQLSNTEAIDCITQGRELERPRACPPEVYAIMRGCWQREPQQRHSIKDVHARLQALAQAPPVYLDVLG

Set 1
Method: PRP chromatography estimate
Sample: 1,9-decadiene/PBS
pH: 7.4
Compound | logD
CC(C)C[C@@H]1NC(=O)[C@H](CC(C)C)NC(=O)[C@H](CC(C)C)NC(=O)[C@H](CC(C)C)NC(=O)[C@@H](Cc2cscn2)NC(=O)[C@H](CCC(=O)N2CCCC2)NC(=O)[C@H](C)NC1=O | -1.8
CC(C)C[C@@H]1NC(=O)[C@H](CC(C)C)NC(=O)[C@@H](C(C)C)NC(=O)[C@H](C(C)C)NC(=O)[C@H](C(C)C)NC(=O)[C@H](Cc2cscn2)NC(=O)[C@H](C)NC1=O | -1.27
CC(C)C[C@@H]1NC(=O)[C@H](CC(C)C)NC(=O)[C@@H](CC(C)C)NC(=O)[C@H](CC(C)C)NC(=O)[C@@H](Cc2cscn2)NC(=O)[C@@H](CC(C)C)NC(=O)[C@H](C)NC1=O | 0.285
CC(C)C[C@@H]1NC(=O)[C@H](Cc2cscn2)NC(=O)[C@H](CCC(=O)N2CCCC2)NC(=O)[C@H](CCC(=O)N2CCCC2)NC(=O)[C@@H](Cc2cscn2)NC(=O)[C@H](CC(C)C)NC(=O)[C@@H](CC(C)C)NC1=O | -2.2

Set 2
SMILES: CC(C)(C(=O)O)[C@H](NC(=O)Cc1cccc(I)c1)c1ccc2oc(=O)[nH]c2c1
Method: Incucyte 3D growth
Tested at: 30 µM
Direction: higher = more growth
cell line | setting | spheroid area
IPC-298 | 270 h | 3.3e+07 a.u. and 4.57e+07 a.u. and 2.61e+07 a.u. and 3.54e+07 a.u. and 2.8e+07 a.u. and 4.1e+07 a.u.
NCI-H358 | 150 h | 5.14e+06 a.u. and 5.72e+06 a.u. and 8.86e+06 a.u. and 7.29e+06 a.u. and 5.24e+06 a.u. and 6.99e+06 a.u.
NCI-H358 | 66 h | 4.15e+06 a.u. and 3.51e+06 a.u.
NCI-H358 | 180 h | 5.74e+06 a.u. and 9.37e+06 a.u. and 5.93e+06 a.u. and 7.73e+06 a.u. and 6.97e+06 a.u. and 7.59e+06 a.u.

Set 3
Host: mouse
Sample: microsomes or S9
Tested at: 2 µM
Time: 0.5 h
SMILES | remaining compound
Cc1csc(C2=C(N)N(C(C)CCc3ccco3)CC2=O)n1 (centres unmarked) | 2.46%
Cn1ccc(Cn2nnn(-c3cccs3)c2=O)cc1=O | 34.4%
CN1C(=O)OC2(C)CC(C)(C)c3ccccc3C12C (centres unmarked) | 0.415%
COc1cc(=O)n(C)cc1C(=O)NCc1nc(C)no1 | 74.7%
Cc1ccc(CN2CCC(CNC(=O)c3c4c(nc5ccccc35)C(=O)N(C3CCCCC3)C4)C2)cc1 (centres unmarked) | 2.56%

Set 4
Cell line: A-375
Tested at: 100 µM
Time: 18 h
Compound | viability
O=c1c(-c2ccc(O)cc2)coc2c([C@@H]3O[C@H](CO)[C@@H](O)[C@H](O)[C@H]3O)c(O)ccc12 | 97.1%
CN(Cc1cc(Br)cc(Br)c1N)C1CCCCC1 | 11.1%
CC1(C)[C@H]2CC[C@]1(C)C(=O)C2 | 104%
Cc1ccnc2c1NC(=O)c1cccnc1N2C1CC1 | 88.4%
COC(=O)N[C@H](C(=O)N1CCC[C@H]1c1nc(-c2ccc(-c3ccc(-c4c[nH]c([C@@H]5CCCN5C(=O)[C@@H](NC(=O)OC)C(C)C)n4)cc3)cc2)c[nH]1)C(C)C | 20.6%

Set 5
Target: panel of 300 human kinases
Tested at: 0.5 µM
Direction: higher = more selective
SMILES | Gini score
CC(=O)c1ccc(N2CCOCC2)cc1O | 0.73
O=S(=O)(NCCNC/C=C/c1ccc(Br)cc1)c1cccc2cnccc12 | 0.65
Nc1nccc(-c2c(-c3ccc(F)cc3)ncn2C2CCNCC2)n1 | 0.77
Cc1cn(-c2cc(NC(=O)c3ccc(C)c(Nc4nccc(-c5cccnc5)n4)c3)cc(C(F)(F)F)c2)cn1 | 0.78
CCN(CC)CCNC(=O)c1c(C)[nH]c(/C=C2\C(=O)Nc3ccc(F)cc32)c1C | 0.52

Set 6
SMILES: COc1ccc2cc(OCC3(C(=O)O)CN(C(=O)c4ccc(F)cc4)C3)ccc2c1
Observed: cell-free assay
Method: competition with immobilised ligand
Tested at: 1 µM
target | remaining binding [%]
PIK3CA (Homo sapiens, UniProt P42336) | 100
PIM3 (Homo sapiens, UniProt Q86V86) | 98
CASK (Homo sapiens, UniProt O14936) | 91
STK26 (Homo sapiens, UniProt Q9P289) | 100
MARK3 (Homo sapiens, UniProt P27448) | 94
PAK4 (Homo sapiens, UniProt O96013) | 94
RET (Homo sapiens, UniProt P07949, V804L) | 78
OXSR1 (Homo sapiens, UniProt O95747) | 100
MAPK13 (Homo sapiens, UniProt O15264) | 100
CDK16 (Homo sapiens, UniProt Q00536) | 100
PAK6 (Homo sapiens, UniProt Q9NQU5) | 100
TGFBR2 (Homo sapiens, UniProt P37173) | 100
CLK3 (Homo sapiens, UniProt P49761) | 99
NTRK1 (Homo sapiens, UniProt P04629) | 71
MAP3K13 (Homo sapiens, UniProt O43283) | 100
TAOK2 (Homo sapiens, UniProt Q9UL54) | 100
WNK2 (Homo sapiens, UniProt Q9Y3S1) | 84
Tyrosine-protein kinase JAK1, JH1 (JAK1, Homo sapiens, UniProt P23458) | 93
MAP3K10 (Homo sapiens, UniProt Q02779) | 100
MST1R (Homo sapiens, UniProt Q04912) | 100
MTOR (Homo sapiens, UniProt P42345) | 100
ULK3 (Homo sapiens, UniProt Q6PHR2) | 86
NEK1 (Homo sapiens, UniProt Q96PY6) | 100
PHKG2 (Homo sapiens, UniProt P15735) | 100
SIK3 (Homo sapiens, UniProt Q9Y2K2) | 72

Set 7
Cell line: mouse MPNST tumor cells
Method: high-content nuclear imaging
Item: cell number
Tested at: 10 µM
Time: 12 h
Notes: mean of 2 replicates
Relative to: plate mean
Direction: higher = more cells
SMILES | nuclei count
CC(C)(C)C(=O)C(=Nc1ccc(Cl)cc1)NNc1ccc(Cl)cc1 | 1.69 z-score
CN(C)CCCOc1nn(Cc2ccccc2)c2ccccc12 | 1.96 z-score
CCCCCS(=O)(=O)CCCCCCCCCCn1c(-c2ccc(O)cc2)c(C)c2cc(O)ccc21 | -1.1 z-score
CCC(C)CCCC(=O)NC(CCN)C(=O)NC(C(=O)NC(CCN)C(=O)NC1CCNC(=O)C(C(C)O)NC(=O)C(CCN)NC(=O)C(CCN)NC(=O)C(CC(C)C)NC(=O)C(CC(C)C)NC(=O)C(CCN)NC1=O)C(C)O (centres unmarked) | 1.67 z-score
c1cc(CN2CCCNCCNCCCNCC2)ccc1CN1CCCNCCNCCCNCC1 | 1.56 z-score

Excerpt of the above (set 6):
target | remaining binding [%]
MTOR (Homo sapiens, UniProt P42345) | 100
ULK3 (Homo sapiens, UniProt Q6PHR2) | 86
NEK1 (Homo sapiens, UniProt Q96PY6) | 100
PHKG2 (Homo sapiens, UniProt P15735) | 100
SIK3 (Homo sapiens, UniProt Q9Y2K2) | 72
